# Experimental data pooled from the literature.
# A part holds a random share of what one study measured. Values joined by “and” are separate records of one study, mostly repeats; a detail may differ.
# UniProt P42336, sequence (whole entry, unmodified, looked up): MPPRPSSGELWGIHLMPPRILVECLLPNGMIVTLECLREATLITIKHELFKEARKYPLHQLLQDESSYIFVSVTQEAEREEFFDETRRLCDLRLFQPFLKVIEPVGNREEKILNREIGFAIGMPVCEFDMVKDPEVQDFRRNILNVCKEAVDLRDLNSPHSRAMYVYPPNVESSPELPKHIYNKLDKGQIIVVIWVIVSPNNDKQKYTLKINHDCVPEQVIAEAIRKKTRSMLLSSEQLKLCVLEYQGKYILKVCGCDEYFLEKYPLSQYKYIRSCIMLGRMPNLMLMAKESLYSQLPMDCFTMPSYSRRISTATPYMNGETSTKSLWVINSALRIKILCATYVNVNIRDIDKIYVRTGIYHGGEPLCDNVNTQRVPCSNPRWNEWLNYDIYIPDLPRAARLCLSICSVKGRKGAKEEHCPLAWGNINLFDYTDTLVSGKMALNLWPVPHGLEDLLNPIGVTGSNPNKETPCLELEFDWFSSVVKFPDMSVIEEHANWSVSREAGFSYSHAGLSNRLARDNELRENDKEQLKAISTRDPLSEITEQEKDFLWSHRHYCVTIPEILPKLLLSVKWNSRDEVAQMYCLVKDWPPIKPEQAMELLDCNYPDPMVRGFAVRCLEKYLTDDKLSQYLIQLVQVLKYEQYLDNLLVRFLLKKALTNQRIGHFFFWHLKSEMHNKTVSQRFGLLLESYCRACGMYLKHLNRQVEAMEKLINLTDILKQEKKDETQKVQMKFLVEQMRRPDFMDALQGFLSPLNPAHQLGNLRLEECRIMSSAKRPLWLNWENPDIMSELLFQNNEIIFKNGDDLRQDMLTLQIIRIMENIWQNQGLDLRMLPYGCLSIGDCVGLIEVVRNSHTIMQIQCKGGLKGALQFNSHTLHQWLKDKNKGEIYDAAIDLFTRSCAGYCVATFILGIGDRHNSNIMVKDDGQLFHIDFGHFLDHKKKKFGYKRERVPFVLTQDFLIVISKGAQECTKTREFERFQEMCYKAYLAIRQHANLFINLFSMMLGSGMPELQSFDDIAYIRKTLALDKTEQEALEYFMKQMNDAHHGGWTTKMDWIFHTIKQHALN
# UniProt Q9BUB5, sequence (whole entry, looked up): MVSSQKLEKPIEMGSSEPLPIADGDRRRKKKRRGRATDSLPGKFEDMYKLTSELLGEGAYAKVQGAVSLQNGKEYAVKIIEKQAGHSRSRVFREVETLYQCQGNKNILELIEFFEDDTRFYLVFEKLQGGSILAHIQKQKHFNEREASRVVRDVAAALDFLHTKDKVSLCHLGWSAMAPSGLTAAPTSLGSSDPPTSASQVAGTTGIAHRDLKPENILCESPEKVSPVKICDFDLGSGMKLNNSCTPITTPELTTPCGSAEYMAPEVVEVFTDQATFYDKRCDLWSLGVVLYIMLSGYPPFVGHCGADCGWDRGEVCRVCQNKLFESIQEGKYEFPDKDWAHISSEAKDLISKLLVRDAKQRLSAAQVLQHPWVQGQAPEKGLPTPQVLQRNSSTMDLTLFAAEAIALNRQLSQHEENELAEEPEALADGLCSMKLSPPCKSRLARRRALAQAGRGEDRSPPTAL
# UniProt P42684, sequence (whole entry, looked up): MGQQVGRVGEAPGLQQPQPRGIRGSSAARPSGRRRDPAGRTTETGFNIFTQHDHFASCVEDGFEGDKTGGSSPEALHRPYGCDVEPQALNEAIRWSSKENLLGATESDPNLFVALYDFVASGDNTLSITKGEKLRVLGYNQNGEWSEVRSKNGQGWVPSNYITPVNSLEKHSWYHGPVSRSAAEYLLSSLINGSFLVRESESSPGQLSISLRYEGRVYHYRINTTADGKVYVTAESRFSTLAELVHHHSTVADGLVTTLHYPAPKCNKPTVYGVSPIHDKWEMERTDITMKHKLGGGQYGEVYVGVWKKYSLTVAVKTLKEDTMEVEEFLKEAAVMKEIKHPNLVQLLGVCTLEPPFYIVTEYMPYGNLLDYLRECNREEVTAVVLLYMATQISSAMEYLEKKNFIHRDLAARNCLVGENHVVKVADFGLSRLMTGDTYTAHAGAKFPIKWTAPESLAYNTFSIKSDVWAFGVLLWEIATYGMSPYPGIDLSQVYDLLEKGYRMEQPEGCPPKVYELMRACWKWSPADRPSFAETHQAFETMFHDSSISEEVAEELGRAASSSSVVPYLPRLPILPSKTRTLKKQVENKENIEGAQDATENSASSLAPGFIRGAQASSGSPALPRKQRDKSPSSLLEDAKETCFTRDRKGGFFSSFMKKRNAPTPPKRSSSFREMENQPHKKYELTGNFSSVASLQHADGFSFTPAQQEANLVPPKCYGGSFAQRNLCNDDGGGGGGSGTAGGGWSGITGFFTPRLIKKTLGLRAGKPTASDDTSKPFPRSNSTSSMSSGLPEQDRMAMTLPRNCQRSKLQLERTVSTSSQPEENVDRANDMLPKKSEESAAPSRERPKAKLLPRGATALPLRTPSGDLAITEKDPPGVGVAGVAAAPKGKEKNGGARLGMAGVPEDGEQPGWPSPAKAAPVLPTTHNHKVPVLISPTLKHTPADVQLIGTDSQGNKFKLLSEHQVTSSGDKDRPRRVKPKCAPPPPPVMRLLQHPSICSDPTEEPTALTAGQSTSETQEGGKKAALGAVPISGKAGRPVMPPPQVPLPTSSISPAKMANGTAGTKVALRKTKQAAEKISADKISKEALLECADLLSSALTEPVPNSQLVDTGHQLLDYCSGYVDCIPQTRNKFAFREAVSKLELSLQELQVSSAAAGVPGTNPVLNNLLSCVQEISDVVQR
# UniProt Q9H1R3, sequence (whole entry, looked up): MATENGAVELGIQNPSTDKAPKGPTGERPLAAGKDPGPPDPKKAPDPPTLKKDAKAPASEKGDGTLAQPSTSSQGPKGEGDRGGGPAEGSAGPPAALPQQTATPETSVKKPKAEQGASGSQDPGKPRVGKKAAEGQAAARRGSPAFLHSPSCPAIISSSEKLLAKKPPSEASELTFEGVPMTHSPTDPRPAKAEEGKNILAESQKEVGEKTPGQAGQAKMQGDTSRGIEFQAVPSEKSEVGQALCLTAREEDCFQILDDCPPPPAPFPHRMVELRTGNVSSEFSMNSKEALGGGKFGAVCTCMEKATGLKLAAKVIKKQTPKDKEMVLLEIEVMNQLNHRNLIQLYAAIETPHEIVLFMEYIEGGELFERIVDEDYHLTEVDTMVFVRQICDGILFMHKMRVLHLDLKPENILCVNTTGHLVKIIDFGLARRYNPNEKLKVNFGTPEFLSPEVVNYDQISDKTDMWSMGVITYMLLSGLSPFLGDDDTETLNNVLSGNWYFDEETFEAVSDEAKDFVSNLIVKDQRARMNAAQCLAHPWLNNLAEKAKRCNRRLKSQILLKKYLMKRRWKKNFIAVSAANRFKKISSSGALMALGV
# UniProt P51617, sequence (whole entry, looked up): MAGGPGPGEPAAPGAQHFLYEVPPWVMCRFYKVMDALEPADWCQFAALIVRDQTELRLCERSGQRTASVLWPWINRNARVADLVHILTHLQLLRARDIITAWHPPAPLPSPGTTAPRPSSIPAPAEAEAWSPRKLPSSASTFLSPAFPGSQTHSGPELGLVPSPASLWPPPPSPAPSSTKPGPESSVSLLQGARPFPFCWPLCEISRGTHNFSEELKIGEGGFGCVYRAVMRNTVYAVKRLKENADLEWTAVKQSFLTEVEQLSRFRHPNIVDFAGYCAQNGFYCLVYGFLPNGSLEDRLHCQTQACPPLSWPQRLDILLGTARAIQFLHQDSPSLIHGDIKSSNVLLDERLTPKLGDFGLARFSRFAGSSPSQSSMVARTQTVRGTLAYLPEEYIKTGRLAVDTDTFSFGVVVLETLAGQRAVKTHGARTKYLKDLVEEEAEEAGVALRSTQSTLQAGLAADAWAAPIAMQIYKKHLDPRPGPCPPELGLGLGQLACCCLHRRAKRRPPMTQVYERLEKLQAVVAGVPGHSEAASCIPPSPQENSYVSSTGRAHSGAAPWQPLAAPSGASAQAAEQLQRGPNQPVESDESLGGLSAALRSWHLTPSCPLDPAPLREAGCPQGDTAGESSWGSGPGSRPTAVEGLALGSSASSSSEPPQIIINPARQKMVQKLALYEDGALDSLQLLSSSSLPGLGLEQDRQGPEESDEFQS
# UniProt Q8IW41, sequence (whole entry, looked up): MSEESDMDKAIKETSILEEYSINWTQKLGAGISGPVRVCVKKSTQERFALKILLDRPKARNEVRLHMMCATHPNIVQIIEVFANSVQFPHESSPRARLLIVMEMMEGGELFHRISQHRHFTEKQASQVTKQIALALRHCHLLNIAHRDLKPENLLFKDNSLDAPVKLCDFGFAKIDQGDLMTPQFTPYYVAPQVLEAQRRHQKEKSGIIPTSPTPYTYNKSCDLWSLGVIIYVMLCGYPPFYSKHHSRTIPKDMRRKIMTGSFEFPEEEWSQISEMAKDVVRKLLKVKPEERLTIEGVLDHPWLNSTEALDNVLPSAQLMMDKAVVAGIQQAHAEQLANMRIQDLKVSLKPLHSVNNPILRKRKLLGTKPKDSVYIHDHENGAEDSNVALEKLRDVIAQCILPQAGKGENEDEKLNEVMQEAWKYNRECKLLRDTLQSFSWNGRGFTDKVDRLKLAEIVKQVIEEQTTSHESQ
# UniProt P45983, sequence (whole entry, looked up): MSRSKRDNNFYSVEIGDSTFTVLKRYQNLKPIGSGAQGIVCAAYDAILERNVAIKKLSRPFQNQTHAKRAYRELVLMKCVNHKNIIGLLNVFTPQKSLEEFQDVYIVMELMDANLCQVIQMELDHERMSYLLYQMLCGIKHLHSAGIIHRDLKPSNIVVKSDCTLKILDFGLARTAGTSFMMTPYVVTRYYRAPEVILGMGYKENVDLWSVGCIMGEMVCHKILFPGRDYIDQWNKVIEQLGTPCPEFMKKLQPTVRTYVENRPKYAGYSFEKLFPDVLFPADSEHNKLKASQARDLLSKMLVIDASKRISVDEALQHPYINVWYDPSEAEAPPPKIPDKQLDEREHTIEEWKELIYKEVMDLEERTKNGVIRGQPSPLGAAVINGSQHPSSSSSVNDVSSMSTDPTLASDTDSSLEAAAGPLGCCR

# Block 1
# Structure (SMILES): CCCCN(CCCC)C(=O)CN1C[C@H](c2cc(OC)c3c(c2)OCO3)[C@@H](C(=O)O)[C@@H]1CC(C)(C)CCC
# Effect on: cell-free assay
# Technique: competition with immobilised ligand
# Tested at: 1 µM
target,remaining binding [%]
"Phosphatidylinositol 4,5-bisphosphate 3-kinase catalytic subunit alpha isoform (PIK3CA, Homo sapiens, UniProt P42336, H1047L)",100
"Myosin light chain kinase 2, skeletal/cardiac muscle (MYLK2, Homo sapiens, UniProt Q9H1R3)",100
"Homeodomain-interacting protein kinase 1 (HIPK1, Homo sapiens, UniProt Q86Z02)",100
"Ribosomal protein S6 kinase alpha-1, C-terminal kinase domain (RPS6KA1, Homo sapiens, UniProt Q15418)",100
"Phosphatidylinositol 4,5-bisphosphate 3-kinase catalytic subunit alpha isoform (PIK3CA, Homo sapiens, UniProt P42336, I800L)",52.9
"Tyrosine-protein kinase ABL2 (ABL2, Homo sapiens, UniProt P42684)",100

# Block 2
# Cell line: A-375
# Tested at: 100 µM
# Time: 18 h
SMILES,viability
CC1(C)S[C@@H]2[C@H](NC(=O)[C@H](N)c3ccc(O)cc3)C(=O)N2[C@H]1C(=O)O,86.7% and 96.5%
CCOC(=O)[C@H](CCc1ccccc1)N[C@@H](C)C(=O)N1CCC[C@H]1C(=O)O,102%
OC(CCCN1CCCCC1)(c1ccccc1)c1ccccc1,86%
CC(C)Cn1cnc2c(N)nc3ccccc3c21,90.7%
CN(C)CCC=C1c2ccccc2C=Cc2ccccc21,11.7%
COc1cc2c(Nc3ccc(Br)cc3F)ncnc2cc1OCC1CCN(C)CC1,8.45%

# Block 3
# Organism: Sarcocystis neurona
# Effect on: parasite growth
# Tested at: 10 µM
SMILES,inhibition
CN(CCO)CC(O)Cn1cnc2c1c(=O)n(C)c(=O)n2C.O=C(O)c1cccnc1 (centres unmarked),-19.4%
CC(=O)O[C@]1(C(C)=O)CC[C@H]2[C@@H]3C[C@H](C)C4=CC(=O)CC[C@]4(C)[C@H]3CC[C@@]21C,-26.3%
Nc1ncn([C@@H]2O[C@H](CO)[C@@H](O)[C@H]2O)c(=O)n1,-26.4%
CC(C)/N=c1\cc2n(-c3ccc(Cl)cc3)c3ccccc3nc-2cc1Nc1ccc(Cl)cc1,97.2%
COc1ccccc1OCCNCC(O)COc1cccc2[nH]c3ccccc3c12 (centres unmarked),32.2%
CN[C@@H]1[C@H](O)[C@H](NC)[C@H]2O[C@@]3(O)C(=O)C[C@@H](C)O[C@H]3O[C@@H]2[C@H]1O.Cl.Cl,-22.7%
CN(C)[C@@H]1C(O)=C(C(N)=O)C(=O)[C@@]2(O)C(O)=C3C(=O)c4c(O)cccc4[C@@](C)(O)[C@H]3[C@H](O)[C@@H]12,9.5%

# Block 4
# SMILES: CO[C@H]1C[C@@H]2CC[C@@H](C)[C@@](O)(O2)C(=O)C(=O)N2CCCC[C@H]2C(=O)O[C@H]([C@H](C)C[C@@H]2CC[C@@H](O)[C@H](OC)C2)CC(=O)[C@H](C)/C=C(\C)[C@@H](O)[C@@H](OC)C(=O)[C@H](C)C[C@H](C)/C=C/C=C/C=C/1C
# Effect on: enzyme activity
# Action: inhibitor
# Tested at: 0.5 µM
# Reference: control
target,remaining activity [%]
"MAP kinase-activated protein kinase 5 (MAPKAPK5, Homo sapiens, UniProt Q8IW41)",98
"Serine/threonine-protein kinase 26 (STK26, Homo sapiens, UniProt Q9P289)",113
"Mitogen-activated protein kinase 8 (MAPK8, Homo sapiens, UniProt P45983)",100
"Protein kinase C beta type, isoform beta-II (PRKCB, Homo sapiens, UniProt P05771)",89.1
"MAP kinase-interacting serine/threonine-protein kinase 1 (MKNK1, Homo sapiens, UniProt Q9BUB5)",101
"Serine/threonine-protein kinase D2 (PRKD2, Homo sapiens, UniProt Q9BZL6)",99
"Interleukin-1 receptor-associated kinase 1 (IRAK1, Homo sapiens, UniProt P51617)",118

# Repeated from above (block 1):
target,remaining binding [%]
"Tyrosine-protein kinase ABL2 (ABL2, Homo sapiens, UniProt P42684)",100
"Myosin light chain kinase 2, skeletal/cardiac muscle (MYLK2, Homo sapiens, UniProt Q9H1R3)",100
"Phosphatidylinositol 4,5-bisphosphate 3-kinase catalytic subunit alpha isoform (PIK3CA, Homo sapiens, UniProt P42336, I800L)",52.9
